Experimental data pooled from the literature.
Every numbered part comes from another study and shows a few of its results, in no order.

Block 1 — method: RNA Bind-n-Seq; molecule type: RNA; medium: in vitro; tested at: 200 nM; notes: whole 134-nt RNA, ends assumed; added: 150 mM LiCl; relative to: input library; reading: higher = stronger binding; endpoint: log2 enrichment; library: 7-deaza-guanosine replaces G
Target: Fragile X messenger ribonucleoprotein 1, C-terminal low-complexity region (Fmr1, Mus musculus, UniProt P35922)
Constant ends, left off below: GGGAGUUCUACAGUCCGACGAUC … UGGAAUUCUCGGGUGUCAAGG
Strand = CACAGACAACACGCACCCACACAGACACAUAGGGAAGGGGUUGGGAUGGGGACAGGGUGCACAGCAGGGCGGGGUAGGACCCCAGCCCCU; value = 0.484
Strand = AAGUCCUGUGCUACACAUCGUAUGUACCGAAUCGGGAAAAAGGGAAAAAGGGAGGGAAAGUAUUAUGUUACGCCGUUCGGAUCUGCACUU; value = 0.0263
Strand = GCAGGAAGUAAAAACAAAUGGAAAUGCUUCGGAUAGUGGCAGGGGUGGGGGUUGCUAAGGAAAGGGUGGGAUGGGAGUGGGUAAAGUGUU; value = 1.86
Strand = UCCUGUGCUACACAUCGUAUGUACCGAAUCGGGGUUUUUGGGGUGGGGAAAAAAAGGGGAAAGUAUUAUGUUACGCCGUUCGGAUCUGCA; value = -1.92
Strand = UGCUGCUUUCUGCCUUGGUGGCAGGCAGAGAACUGUCUCGUACUAGAAUUCAAGGAGGAAAGAAGAAGAAAUAAAAGAAGCUGCUCCAUU; value = -0.191
Strand = UGGCCCUGGUGGCAUGCGGGGAGGAAGAGGUGGCCUCUUGGAUCGUGGUGGUCCCGGUGGAAUGUUCAGAGGUGGCCGUGGUGGAGACAG; value = -0.186
Strand = UGGGAGACGAUCGCGAUGAACACGGUGCUGUCGCGGGCGAACUCACUGUUCGCCUUCUCGCUGAGCGUGAUGGCGGCGCUCACCUUCGGC; value = -3.01
Strand = UGGGAGGUGGAUUUUGUUUAUUUUUUUAGCUCAUUUCCAGGGGUGGGAAUUUUUUUUUAAUAUGUGUCAUCAAUAAAGUUGUUUUUGAAA; value = 0.631
Strand = ACCAUGCAGGUGGGCAUCUUUGGGAAGUGGGGCAAGGGGGGGAUAGGGAGGGGGGUAACACUUUGGGAACAGGUGGUACCAGGUCGUUUC; value = 1.71
Strand = UCCUCAAGUCCUGUGCUACACAUCGUAUGUACCGAAUCGGUGGGGUGGUGGGAAAGUAUUAUGUUACGCCGUUCGGAUCUGCACUUCCAG; value = 0.565
Strand = UCCUGUGCUACACAUCGUAUGUACCGAAUCGGGUUUUUUGGGUUUUUUGGGUUUUUUGGAAAGUAUUAUGUUACGCCGUUCGGAUCUGCA; value = -0.0247

Block 2 — method: protein binding microarray; molecule type: double-stranded DNA, one strand shown; medium: in vitro; tested at: not given; relative to: not given; reading: higher = stronger binding; endpoint: E-score
Target: Histone acetyltransferase KAT6A, both winged helices, GST fusion (KAT6A, Homo sapiens, UniProt Q92794, residues 1-181)
Notes: 8-mer, flanks averaged, mean of 2 arrays, mostly near background
Target sequence (chain): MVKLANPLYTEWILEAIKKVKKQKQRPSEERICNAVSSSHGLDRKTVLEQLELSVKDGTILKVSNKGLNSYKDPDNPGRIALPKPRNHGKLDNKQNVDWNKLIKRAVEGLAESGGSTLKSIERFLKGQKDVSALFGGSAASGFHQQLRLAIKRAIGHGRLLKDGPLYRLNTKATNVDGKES
Strand = CGTTGTAA; value = -0.033
Strand = GTTAACAA; value = 0.0342
Strand = ACGCCCGT; value = 0.275
Strand = CGTAGACA; value = -0.0172
Strand = AAGCCAAC; value = 0.017
Strand = CGCGTGTA; value = 0.221
Strand = ACTGAAAC; value = -0.0358
Strand = ATTGCCGA; value = 0.175
Strand = CCGTCAGC; value = 0.213
Strand = AAACACTC; value = -0.0399
Strand = CATAATCG; value = 0.0348
Strand = TGTATTAA; value = -0.0387
Strand = TAATCGGA; value = 0.0304
Strand = GGCTACCA; value = -0.0845
Strand = CCCGATGC; value = 0.138
Strand = TCTTCGAA; value = 0.0821
Strand = ACGGTTGA; value = -0.0158
Strand = AGTATTCA; value = -0.0282
Strand = ACCTCTCG; value = -0.0738
Strand = GCCCGTAA; value = 0.239
Strand = CCGTGCGC; value = 0.301

Block 3 — method: EMSA with sequencing; molecule type: double-stranded DNA, one strand shown; medium: in vitro; tested at: 10 and 20 nM; relative to: negative control set to 0; reading: higher = stronger binding; endpoint: normalised bound fraction
Target: Hepatocyte nuclear factor 3-alpha (Foxa1, Mus musculus, UniProt P35582, residues 1-468, full length assumed)
Notes: whole designed probe, mean of two concentrations, ends assumed
Constant ends, left off below: GTGAGCGGTGCCCATTGATGGGGAAC … TTTCACTGGGATCGTGGGGAC
Residues (chain): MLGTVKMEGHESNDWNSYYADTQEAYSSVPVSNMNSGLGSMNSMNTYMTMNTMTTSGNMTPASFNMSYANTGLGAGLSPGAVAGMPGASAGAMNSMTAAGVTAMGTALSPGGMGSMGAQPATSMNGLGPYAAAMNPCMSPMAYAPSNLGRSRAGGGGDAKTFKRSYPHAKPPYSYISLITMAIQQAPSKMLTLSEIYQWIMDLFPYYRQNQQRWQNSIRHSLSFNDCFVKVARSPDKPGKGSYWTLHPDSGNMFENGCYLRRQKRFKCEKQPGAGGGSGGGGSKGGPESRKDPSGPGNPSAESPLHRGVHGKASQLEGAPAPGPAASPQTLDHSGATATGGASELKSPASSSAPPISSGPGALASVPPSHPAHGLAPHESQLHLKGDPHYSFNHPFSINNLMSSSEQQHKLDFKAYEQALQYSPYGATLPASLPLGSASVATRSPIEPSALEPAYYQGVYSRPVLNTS
Strand = GTTTTTTTTTTTAAGTTAGTAGTACCTTCTGTATCCTTCAAACATCTAAAGAGAAAAAGCTAATAGATTGTGCAATATTTCCAGAAGGCAAAGTAAACATGCAACAAAAAAGTAAAGTAAAAGATGATCTTATGTTTGAAATGTTTCTGAGCTTTGTTTGATGGTTTCTTGATTGTGTGTGTGAGTGTGTGTG; value = 0.325 ratio
Strand = GTTTTCCTGGAGTTTGAAAATTGTTATTCAAGAACGTGTTAGACTTAAATCACTATTCTGGTTAAAAATAAATTAATTGTTCCTTGCATCCCTGTTTACTTAGAAATTATCCCTTTAGTCATCTTAGTTGGAAAGACAAAGCCTCAGAATTTTTTCTACACTTCTTCCTAAAAAATTTCTGCCCACTTAATCC; value = 0.185 ratio
Strand = TGGAAACCTGTAAGTATCTTATGTGGAGAGACTAAGCGAAGAAACATTCTTTCTAAAATGAATCACATATTAACATAAAAAATCCCATTTTTCTTGTTTACTTTGAAGGCTACCTCTCAAAAATGTAACATGCAGCCGCTGGCATCTTTGCATCTTTGAACTCACTATTCCTTTTTCAAGCAGTCTGAGTTGA; value = 0.326 ratio
Strand = CAGAGAGTGTTTGCAGTTGTTCATCCTAAATTACACTGTTGTTTTAGCCTGTTGTGTGCTCAGAGCTGATTAATAAACAGAAATTAAGTCACTTATTTACTTTTTGCTTCAAATCACAGTGTGCGACTCGAGTGGTTGATATCTCACTGATATTTGTGAATGCGTGGATGAGTGACTGGATCTGCTTGTGTGT; value = 0.386 ratio
Strand = ATTACCTTGTTGAATCTTTCTACAATGTATAAATATATTAAAACATCACATTGTATTCCACTAATACACACAATTATTAGTTGTTGATTAAAAGTAATTTAAGAAAAAGGAGAACAATGTTGAAGGACTATAGTAATCAAAACAGTGTGATACTGGCATAAACATAGACATGTAAATCAATGGCATACAATCA; value = 0.187 ratio
Strand = TTTATGCTTTGTTTGAATAACAAGAATGGAGGAGATAAGGGGAACAACTGTACTTCCTAATGGTTAGTCCACAAAAAGCCATTAGCATTCACTGTAAACAGCATTCATCAATGTGCTGTCTTAGGTCAGGATCAACTTCCTTATCTAAACTTGAGAAGGGACTGCCCTTTTTTCTCTATCTCACTTATAATAC; value = 0.281 ratio

Block 4 — method: protein-binding microarray; molecule type: double-stranded DNA, one strand shown; medium: in vitro; tested at: 250 nM; notes: 60-bp whole probe; added: salmon DNA 0.4 mg/ml; relative to: random background probes; reading: higher = stronger binding; endpoint: log fluorescence; constant ends, left off below: GCCTAGCAC … GTCTTGATTCGCTTGACGCTGCTG
Target: Interferon regulatory factor 7, full length, phosphomimetic (IRF7, Homo sapiens, UniProt Q92985, residues 1-503, S101K/S471D/S472D/S475D/S476D/S477D/S483D/S484D/S487D)
UniProt Q92985, sequence (whole entry, unmodified, looked up): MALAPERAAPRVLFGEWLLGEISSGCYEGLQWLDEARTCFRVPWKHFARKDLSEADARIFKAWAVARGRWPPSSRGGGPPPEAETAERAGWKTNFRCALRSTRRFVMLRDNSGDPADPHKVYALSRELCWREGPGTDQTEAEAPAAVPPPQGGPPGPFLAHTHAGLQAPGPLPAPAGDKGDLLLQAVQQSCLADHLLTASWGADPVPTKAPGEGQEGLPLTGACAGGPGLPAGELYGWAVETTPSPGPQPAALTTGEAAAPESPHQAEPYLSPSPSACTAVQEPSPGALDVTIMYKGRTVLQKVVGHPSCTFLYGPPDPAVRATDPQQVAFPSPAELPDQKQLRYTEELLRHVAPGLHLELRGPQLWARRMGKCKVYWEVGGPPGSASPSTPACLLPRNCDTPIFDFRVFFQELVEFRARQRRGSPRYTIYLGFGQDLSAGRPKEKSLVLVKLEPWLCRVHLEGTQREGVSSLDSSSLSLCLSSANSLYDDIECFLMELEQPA
Strand = GACGGGCTCGGTTTCGGGACGTGCTAG; value = 5.64 z-score
Strand = TAAGGTTTCCTACTGCTTTAGTGCTAG; value = 1.36 z-score
Strand = GACGGTCCCGGTCTCGGGACGTGCTAG; value = 0.354 z-score
Strand = GACGGTTTCGGGTATCGGCACGTGCTA; value = 6.95 z-score
Strand = TTATATTTCGGGTATCGATTAGTGCTA; value = 1.98 z-score
Strand = GACGATTTCCGTATCGAGACGTGCTAG; value = 1.09 z-score
Strand = GACGGTTTCCTACTGCGGACGTGCTAG; value = 1.76 z-score
Strand = ACTTCCCTCGGGTTGCGGAGCGTGCTA; value = 1.11 z-score
Strand = GACGGTATAGGTTTCGGGACGTGCTAG; value = 2.21 z-score
Strand = AACGGTCTCGGTATCGGGACGTGCTAG; value = 2.38 z-score
Strand = GACGGAGTGGACTTTCGGGACGTGCTA; value = -0.832 z-score
Strand = TTAGGTTTCGTCTTTCGGTTAGTGCTA; value = 9.66 z-score
Strand = TTAGGTTTCGGTTCCGGTTAGTGCTAG; value = 12.4 z-score
Strand = TTAGGTCTCGGTTTCGGTCAGTGCTAG; value = 7.6 z-score
Strand = TTAGGTTTCGGTTTCAGTTAGTGCTAG; value = 14.5 z-score
Strand = GACGGTTTCGGTATCGGGATGTGCTAG; value = 10.3 z-score
Strand = TTAGATATCAGTCTCGATTGGTGCTAG; value = 2.21 z-score
Strand = TTAGGTTTCGGGACTGGTTTAGTGCTA; value = 4.28 z-score
Strand = AGCAAATTATATCTTATATCGTGCTAG; value = -0.275 z-score
Strand = GACGGTTTCCTTTCCCTGACGTGCTAG; value = 4.77 z-score
Strand = GACGGTCTCCTACTGCTCACGTGCTAG; value = -0.205 z-score
Strand = TCATTTATGCACTCTCTAACTGTGCTA; value = 0.885 z-score
Strand = TTTTTTTTTTTTTTTTTTACGTGCTAG; value = 0.489 z-score
Strand = GACGGTATCGACTATCGGGCCGTGCTA; value = -0.436 z-score
Strand = GACGGACTGCTTTTCCTCACGTGCTAG; value = 0.45 z-score

Excerpt of the above (block 1):
Strand = CACAGACAACACGCACCCACACAGACACAUAGGGAAGGGGUUGGGAUGGGGACAGGGUGCACAGCAGGGCGGGGUAGGACCCCAGCCCCU; value = 0.484
Strand = AAGUCCUGUGCUACACAUCGUAUGUACCGAAUCGGGAAAAAGGGAAAAAGGGAGGGAAAGUAUUAUGUUACGCCGUUCGGAUCUGCACUU; value = 0.0263
Strand = GCAGGAAGUAAAAACAAAUGGAAAUGCUUCGGAUAGUGGCAGGGGUGGGGGUUGCUAAGGAAAGGGUGGGAUGGGAGUGGGUAAAGUGUU; value = 1.86
Strand = UCCUGUGCUACACAUCGUAUGUACCGAAUCGGGGUUUUUGGGGUGGGGAAAAAAAGGGGAAAGUAUUAUGUUACGCCGUUCGGAUCUGCA; value = -1.92
Strand = UGCUGCUUUCUGCCUUGGUGGCAGGCAGAGAACUGUCUCGUACUAGAAUUCAAGGAGGAAAGAAGAAGAAAUAAAAGAAGCUGCUCCAUU; value = -0.191
Strand = UGGCCCUGGUGGCAUGCGGGGAGGAAGAGGUGGCCUCUUGGAUCGUGGUGGUCCCGGUGGAAUGUUCAGAGGUGGCCGUGGUGGAGACAG; value = -0.186
Strand = UGGGAGACGAUCGCGAUGAACACGGUGCUGUCGCGGGCGAACUCACUGUUCGCCUUCUCGCUGAGCGUGAUGGCGGCGCUCACCUUCGGC; value = -3.01
Strand = UGGGAGGUGGAUUUUGUUUAUUUUUUUAGCUCAUUUCCAGGGGUGGGAAUUUUUUUUUAAUAUGUGUCAUCAAUAAAGUUGUUUUUGAAA; value = 0.631
Strand = ACCAUGCAGGUGGGCAUCUUUGGGAAGUGGGGCAAGGGGGGGAUAGGGAGGGGGGUAACACUUUGGGAACAGGUGGUACCAGGUCGUUUC; value = 1.71
Strand = UCCUCAAGUCCUGUGCUACACAUCGUAUGUACCGAAUCGGUGGGGUGGUGGGAAAGUAUUAUGUUACGCCGUUCGGAUCUGCACUUCCAG; value = 0.565
